{"data": "Results pooled from the literature", "note": "Parts stem from different laboratories: compare values within a part only. Positions count from the first letter of the parent shown."}
{"data": "Block 1", "target": "Hepatocyte nuclear factor 3-beta, forkhead domain (FOXA2, Homo sapiens, UniProt Q9Y261, residues 142-269)", "method": "protein-binding microarray", "form": "double-stranded DNA, one strand shown", "medium": "in vitro", "tested at": "not given", "notes": "k-mer, scored over probes, only values ≥0.25", "reading": "higher = stronger binding", "Construct (chain)": "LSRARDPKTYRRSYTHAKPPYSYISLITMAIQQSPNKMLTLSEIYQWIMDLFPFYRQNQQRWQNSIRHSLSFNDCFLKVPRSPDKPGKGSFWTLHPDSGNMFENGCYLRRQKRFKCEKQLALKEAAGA"}
{"Oligonucleotide": "ACATTGAT", "E-score": 0.276}
{"Oligonucleotide": "ACAGATAC", "E-score": 0.269}
{"Oligonucleotide": "AGTAACAA", "E-score": 0.303}
{"Oligonucleotide": "ATATCCCG", "E-score": 0.259}
{"Oligonucleotide": "ATGTATAG", "E-score": 0.292}
{"Oligonucleotide": "AGACAAAT", "E-score": 0.252}
{"Oligonucleotide": "ATTAGGTA", "E-score": 0.269}
{"Oligonucleotide": "CACACATA", "E-score": 0.282}
{"Oligonucleotide": "GTTATTGA", "E-score": 0.27}
{"Oligonucleotide": "ATAACATG", "E-score": 0.298}
{"Oligonucleotide": "AATATGAT", "E-score": 0.266}
{"Oligonucleotide": "AATATGAC", "E-score": 0.335}
{"Oligonucleotide": "CAAACAAA", "E-score": 0.381}
{"Oligonucleotide": "ATAGTGTA", "E-score": 0.301}
{"Oligonucleotide": "CGAACAAA", "E-score": 0.279}
{"Oligonucleotide": "AAATAACG", "E-score": 0.287}
{"Oligonucleotide": "TATACAGA", "E-score": 0.325}
{"data": "Block 2", "target": "Histone acetyltransferase KAT6A, both winged helices, GST fusion (KAT6A, Homo sapiens, UniProt Q92794, residues 1-181)", "method": "protein binding microarray", "form": "double-stranded DNA, one strand shown", "medium": "in vitro", "tested at": "not given", "notes": "8-mer, flanks averaged, mean of 2 arrays, mostly near background", "baseline": "not given", "reading": "higher = stronger binding", "Construct (chain)": "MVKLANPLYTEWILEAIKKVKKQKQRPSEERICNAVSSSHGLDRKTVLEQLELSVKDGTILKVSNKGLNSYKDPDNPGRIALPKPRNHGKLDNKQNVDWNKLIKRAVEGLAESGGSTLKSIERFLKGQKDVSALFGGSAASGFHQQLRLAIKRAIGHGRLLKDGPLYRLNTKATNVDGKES"}
{"Oligonucleotide": "CTTATTCC", "E-score": -0.112}
{"Oligonucleotide": "CTTCAAGA", "E-score": -0.1}
{"Oligonucleotide": "TCAAGCGA", "E-score": 0.0589}
{"Oligonucleotide": "AGCACGTC", "E-score": -0.0304}
{"Oligonucleotide": "AACGTCCA", "E-score": -0.0209}
{"Oligonucleotide": "AACAGGAT", "E-score": -0.154}
{"Oligonucleotide": "AATTTGAA", "E-score": 0.0343}
{"Oligonucleotide": "AAAAATTT", "E-score": 0.0146}
{"Oligonucleotide": "ATAAACAG", "E-score": -0.135}
{"Oligonucleotide": "TAGCGGCA", "E-score": 0.306}
{"Oligonucleotide": "CTGATTTC", "E-score": -0.173}
{"Oligonucleotide": "GCAGCATA", "E-score": -0.0442}
{"Oligonucleotide": "GGTCGAAA", "E-score": -0.0611}
{"Oligonucleotide": "GTACGGTA", "E-score": 0.198}
{"Oligonucleotide": "CCTCCTGC", "E-score": -0.253}
{"Oligonucleotide": "CTAGCGCA", "E-score": 0.151}
{"Oligonucleotide": "GGTGTTTA", "E-score": 0.095}
{"Oligonucleotide": "AACCGCTT", "E-score": 0.205}
{"Oligonucleotide": "AGAAGCTC", "E-score": -0.0921}
{"Oligonucleotide": "CTCCGGTA", "E-score": 0.165}
{"Oligonucleotide": "GGGCGAAA", "E-score": -0.0423}
{"Oligonucleotide": "ATATCGTC", "E-score": -0.154}
{"Oligonucleotide": "AGCCCTAG", "E-score": -0.221}
{"data": "Block 3", "target": "RNA binding protein fox-1 homolog 2, RRM domain, GST-SBP tag (RBFOX2, Homo sapiens, UniProt O43251-10, residues 100-194)", "method": "RNA Bind-n-Seq", "form": "RNA", "medium": "in vitro", "tested at": "365 nM", "notes": "natural RNA segment, single round, ends assumed", "baseline": "no-protein control", "reading": "higher = stronger binding"}
{"Oligonucleotide": "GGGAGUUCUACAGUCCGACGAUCGAUUAGUCUGAAUGUUUGCAGGCAUUGGAAUAAAAUUUGACUUAUUUUUUCCCUCUUCCCCUGUCAACCUGAAUCCUGUAUCUGUUUGGGGUAUACUGGCUGUUUGUUACUGGAAUUCUCGGGUGCCAA", "RBNS enrichment (R)": 1.7}
{"Oligonucleotide": "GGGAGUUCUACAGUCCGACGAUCUGCUGUGUGACAUUGGGACAACACUUUCCCUCUCUGGACCUCAGUUUCCCUCUGUAUACAAGGAUCAGAUUCUUGCUGUGACCCAAGAACUCCUGAAAUCAUAUAGAAAGUGGAAUUCUCGGGUGCCAA", "RBNS enrichment (R)": 0.535}
{"Oligonucleotide": "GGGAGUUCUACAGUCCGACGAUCGCUGAAUGGGGCUGCAAGGCCAAGGCUCCUUAGGGGAGAGGUCCUUACCUCUGAUCCACUUAGAGCAAUAACCACUUUUUAAAUGUAAAAUAAAAAGACAAAUGAAAAGGUGGAAUUCUCGGGUGCCAA", "RBNS enrichment (R)": 0.53}
{"Oligonucleotide": "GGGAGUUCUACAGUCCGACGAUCAGGAGUGGGUAUCUCUGGCAGCAUGGGCUGCCCGCAGGCUGGGCAGUGGGUCCCUCCACACCUACCUCAGGGAGCCAGUGUGCGGGCGGGAACUCCACAGCAUGCCUGUUUGGAAUUCUCGGGUGCCAA", "RBNS enrichment (R)": 3.5}
{"Oligonucleotide": "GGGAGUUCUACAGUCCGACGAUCGUCCAAUUGCAGUUCUUCUUCGCAUAGAAAUGCAAUUGGAAUAUUUACAAAUCAUAAUCAACAGAGCCCCAGGGGCAAAAUAGACAUUCUAUUUGUCAGCUGUUGCUGCUUGGAAUUCUCGGGUGCCAA", "RBNS enrichment (R)": 0.369}
{"Oligonucleotide": "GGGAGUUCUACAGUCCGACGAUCCACAUUGCCUUUGUUAUCUUUUUUUCGGAUUGAGCUCAUAACAGCCUGUGGCCCCUCACAUUCUCCAGGACCUGCCCUGCUAUGGGCCACUAACUGCUUGCUGGGGACAGUGGAAUUCUCGGGUGCCAA", "RBNS enrichment (R)": 1.23}
{"Oligonucleotide": "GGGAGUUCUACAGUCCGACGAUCAUCCCACUGCAGUGAUGGAUAUGCAUCUUUUACUUCUUGCUCCUUCUGCCCCUGGGUCCAUGUAUCCACCUAGCUCUGGUACCCUCCAGAGGUGCCAUCUCUACCUCUGAUGGAAUUCUCGGGUGCCAA", "RBNS enrichment (R)": 1.41}
{"Oligonucleotide": "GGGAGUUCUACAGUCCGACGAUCUCCUCCUCCAGAAGCGGUGGUCCAGGGGGUGGGGCUCUUAGUCCCUCUGGCCUUCCCCAUAUUACACACCAGCACUUUAUAUAUUUUUGGCUCACAGGAGGAGUCUAGGGUGGAAUUCUCGGGUGCCAA", "RBNS enrichment (R)": 0.662}
{"Oligonucleotide": "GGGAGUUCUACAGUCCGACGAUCUCUGUUAGGGAAAUCACCAGCUUUGGCAUCUUAACAACAAACAGUGGAUGGGUAAUUUUUAUUUCUGAUACGCAUCUUUAGAGUCAAAUAUAUCUUUUCCCUGUACUCCUUGGAAUUCUCGGGUGCCAA", "RBNS enrichment (R)": 1.65}
{"Oligonucleotide": "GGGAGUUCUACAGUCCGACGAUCACACACACACUGCCCUGGGGACCAUCCAUGCCCAUCAAACCAAAGGGAAACUCAAACCCCUGGGAAGGUUUCACUCCCCUGAAGAGAGAGAGGAGCCAUAUCUCUCUUUCUGGAAUUCUCGGGUGCCAA", "RBNS enrichment (R)": 0.597}
{"Oligonucleotide": "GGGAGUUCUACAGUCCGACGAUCUCCUUGAAGAAUGGGUUCUGUGUCUAAUCCUGAAACAAAGAAAACUACAAGCUGGAGUGUAGGAAUUGACUAUAGCAAUUUGAUACAUUUUUAAAGCUGCUUCCUGUUUGUGGAAUUCUCGGGUGCCAA", "RBNS enrichment (R)": 0.513}
{"Oligonucleotide": "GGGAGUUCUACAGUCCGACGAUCUCAGCCGAUGACUUCAGGGUGUCAAACUGUUUUAAUUUUUCAAACAAAUGGAACAGAAGCCAUUGUGGUUCAUCCUGAUUACUUGAACGUUGCACUUGGUGGACCGUGCCUGGAAUUCUCGGGUGCCAA", "RBNS enrichment (R)": 0.433}
{"data": "Block 4", "target": "CCNB3, cyclin fold, Cln2 fusion (human)", "method": "yeast growth competition, sequencing", "medium": "yeast", "notes": "weak parent motif", "baseline": "not given", "reading": "higher = stronger binding", "starting sequence": "HIRA docking peptide (human); SLSKRKLELEVET"}
{"Substitution": "SLSKAKAELEVET [R5A L7A]", "normalised enrichment score": 0.265}
{"Substitution": "SLSKRKAELEVET [L7A]", "normalised enrichment score": 0.397}
{"Substitution": "SLSKKKLELEVET [R5K]", "normalised enrichment score": -0.175}
{"Substitution": "ALSKRKLELEVET [S1A]", "normalised enrichment score": 0.57}
{"Substitution": "SLSKRKLELEAET [V11A]", "normalised enrichment score": -0.066}
{"Substitution": "SLSKRKLEAEVET [L9A]", "normalised enrichment score": 0.413}
{"Substitution": "SLSKKKLEFEVET [R5K L9F]", "normalised enrichment score": -0.117}
{"Substitution": "SLSKRKLELEVEA [T13A]", "normalised enrichment score": 0.518}
{"Substitution": "SLSKAKLELEVET [R5A]", "normalised enrichment score": 0.0259}
{"Substitution": "SLSKRALELEVET [K6A]", "normalised enrichment score": 0.222}
{"data": "Block 5", "target": "Fragile X messenger ribonucleoprotein 1, C-terminal low-complexity region (Fmr1, Mus musculus, UniProt P35922)", "method": "RNA Bind-n-Seq", "form": "RNA", "medium": "in vitro", "tested at": "200 nM", "notes": "whole 134-nt RNA, ends assumed", "with": "150 mM KCl", "baseline": "input library", "reading": "higher = stronger binding"}
{"Oligonucleotide": "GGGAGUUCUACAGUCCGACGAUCCCUCAAGUCCUGUGCUACACAUCGUAUGUACCGAAUCGGCGGGCGGGCGGGGAAAGUAUUAUGUUACGCCGUUCGGAUCUGCACUUCCAGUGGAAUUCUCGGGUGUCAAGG", "log2 enrichment": 0.807}
{"Oligonucleotide": "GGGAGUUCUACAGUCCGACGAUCGUCCUGUGCUACACAUCGUAUGUACCGAAUCGGGGUUUGGGGAAAGGGGAAAAAGGGGAAAGUAUUAUGUUACGCCGUUCGGAUCUGCACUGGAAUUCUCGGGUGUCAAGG", "log2 enrichment": 0.307}
{"Oligonucleotide": "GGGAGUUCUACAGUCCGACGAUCCACAGACAACACGCACCCACACAGACACAGAGGGAAGGGGUUGGGAUGGGGACAGGGUGCACACCAGGGCGGGGUAGGACCCCAGCCCCUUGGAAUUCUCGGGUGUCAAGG", "log2 enrichment": 1.31}
{"Oligonucleotide": "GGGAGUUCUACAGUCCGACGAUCUCCUGUGCUACACAUCGUAUGUACCGAAUCGGUUUUUGGGGUUUUUGGGGUUUUUGGGGAAAGUAUUAUGUUACGCCGUUCGGAUCUGCAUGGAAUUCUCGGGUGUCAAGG", "log2 enrichment": 0.253}
{"Oligonucleotide": "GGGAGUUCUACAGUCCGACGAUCCCUGUGCUACACAUCGUAUGUACCGAAUCGGGCCCCCCGGCCCCCCGGGGCCCCCCGGGGAAAGUAUUAUGUUACGCCGUUCGGAUCUGCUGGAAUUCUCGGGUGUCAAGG", "log2 enrichment": -0.334}
{"Oligonucleotide": "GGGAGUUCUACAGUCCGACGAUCUCAAGUCCUGUGCUACACAUCGUAUGUACCGAAUCGGCCCGGCCCGGCCCGGGGAAAGUAUUAUGUUACGCCGUUCGGAUCUGCACUUCCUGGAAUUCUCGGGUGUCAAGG", "log2 enrichment": -0.232}
{"Oligonucleotide": "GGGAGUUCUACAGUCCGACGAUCUGCUGGAGGCAAAAAAUGCCAGCCUGGCGUCGUCCAACAACGACUUGCAGGUGGCCGAGGAGCAGUACCAGAGGCUUAUGGCCAAGGUAGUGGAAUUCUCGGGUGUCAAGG", "log2 enrichment": -2.05}
{"Oligonucleotide": "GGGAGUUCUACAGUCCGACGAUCGUCCUGUGCUACACAUCGUAUGUACCGAAUCGGGGAAAGGGGAGGGGUUUUUUUGGGGAAAGUAUUAUGUUACGCCGUUCGGAUCUGCACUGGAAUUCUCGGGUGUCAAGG", "log2 enrichment": 0.428}
{"Oligonucleotide": "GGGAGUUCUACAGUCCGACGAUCUCAAGUCCUGUGCUACACAUCGUAUGUACCGAAUCGGAAAAAGGUUUGGAAAGGAAAGUAUUAUGUUACGCCGUUCGGAUCUGCACUUCCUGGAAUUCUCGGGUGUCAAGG", "log2 enrichment": -0.852}
{"Oligonucleotide": "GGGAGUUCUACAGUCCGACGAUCGUCCUGUGCUACACAUCGUAUGUACCGAAUCGGGUUUUUUUGGGAAAAAGGGUUUGGGAAAGUAUUAUGUUACGCCGUUCGGAUCUGCACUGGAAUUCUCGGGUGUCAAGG", "log2 enrichment": -0.517}
{"note": "Some of these lines once more (block 1):"}
{"Oligonucleotide": "AGACAAAT", "E-score": 0.252}
{"Oligonucleotide": "ATTAGGTA", "E-score": 0.269}
{"Oligonucleotide": "CACACATA", "E-score": 0.282}
{"Oligonucleotide": "GTTATTGA", "E-score": 0.27}
{"Oligonucleotide": "ATAACATG", "E-score": 0.298}
{"Oligonucleotide": "AATATGAT", "E-score": 0.266}
